# Results of several laboratories.
# Numbered parts are unrelated; each lists some results of a single study.

# Block 1 — method: RNA Bind-n-Seq; form: RNA; matrix: in vitro; concentration: 200 nM; notes: whole 134-nt RNA, ends assumed; together with: 150 mM KCl; baseline: input library; reading: higher = stronger binding
# Target: Ras GTPase-activating protein-binding protein 1, full length (G3BP1, Homo sapiens, UniProt Q13283)
# Chain of UniProt Q13283 (whole entry, looked up): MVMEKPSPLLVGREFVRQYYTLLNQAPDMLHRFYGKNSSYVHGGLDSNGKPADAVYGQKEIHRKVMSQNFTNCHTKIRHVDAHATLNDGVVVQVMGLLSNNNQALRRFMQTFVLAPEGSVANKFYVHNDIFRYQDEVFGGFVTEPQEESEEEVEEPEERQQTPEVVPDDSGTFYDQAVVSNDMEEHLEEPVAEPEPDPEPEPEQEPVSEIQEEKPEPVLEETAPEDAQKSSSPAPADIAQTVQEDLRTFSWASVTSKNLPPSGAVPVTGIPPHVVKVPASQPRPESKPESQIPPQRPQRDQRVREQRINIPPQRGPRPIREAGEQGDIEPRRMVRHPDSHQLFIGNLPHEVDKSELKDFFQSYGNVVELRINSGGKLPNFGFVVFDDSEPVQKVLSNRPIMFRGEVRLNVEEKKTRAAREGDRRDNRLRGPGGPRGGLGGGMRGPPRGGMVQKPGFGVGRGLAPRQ
# Constant ends, left off below: GGGAGUUCUACAGUCCGACGAUC … UGGAAUUCUCGGGUGUCAAGG
Sequence,log2 enrichment
UGGGAGGUGGAUUUUGUUUAUUUUUUUAGCUCAUUUCCAGGGGUGGGAAUUUUUUUUUAAUUUGUGUCAUGAAUAAAGUUGUUUUUGAAA,0.229
UGCCCAGCUCAUGCUGGACCACCUGAAGAACAGUGCUCCCAGCAAGCGAGAGAUUGCCCAGCUCAAGAACCAGGUAUCCACAGAGAGCAC,-0.825
UUUAAACUGAAGCCGCGGCCGAAAACGCCAAGAGAUUGAUGCUGUAGCUGCCCUGAGAUAACCAGGACUGUGGAAUCGGGAAGAGCUCAU,-0.381
UCCACCCCUUCUUCCUCCCUUUAACUUAUCCAUUCACUUAAAACAUUACCUGGUCAUCUGGUAAGCCCGGGACAGUAAGCCGAGUGGCUG,0.563
UCAAGUCCUGUGCUACACAUCGUAUGUACCGAAUCGGUUUUUGGUGGUUUUUGGAAAGUAUUAUGUUACGCCGUUCGGAUCUGCACUUCC,-0.85
AGUCCUGUGCUACACAUCGUAUGUACCGAAUCGGGAAAAAAAGGGUUUGGGAAAGGGAAAGUAUUAUGUUACGCCGUUCGGAUCUGCACU,-0.344
AGUCCUGUGCUACACAUCGUAUGUACCGAAUCGGGAAAGGGAAAAAAAGGGAAAGGGAAAGUAUUAUGUUACGCCGUUCGGAUCUGCACU,-0.424
CUCAAGUCCUGUGCUACACAUCGUAUGUACCGAAUCGUGUGUGUGUGUGUGUGUAAAGUAUUAUGUUACGCCGUUCGGAUCUGCACUUCC,0.138
CUGUGCUACACAUCGUAUGUACCGAAUCGGGGUUUGGGGUUUUUUUGGGGAAAAAAAGGGGAAAGUAUUAUGUUACGCCGUUCGGAUCUG,-0.132
UGGAAGUGGCGCUGGCGCCUGAAGAGUUGGAGCUGGAUCCUAUGGCCAUGACCCAGAAGUAUGAGGAGCAUGUGCGGGAGCAGCAGGCUC,0.149

# Block 2 — method: protein binding microarray; form: double-stranded DNA, one strand shown; matrix: in vitro; concentration: not given; baseline: not given; reading: higher = stronger binding
# Target: Histone acetyltransferase KAT6A, winged helix 1, GST fusion (KAT6A, Homo sapiens, UniProt Q92794, residues 1-85)
# Notes: 8-mer, flanks averaged, mean of 2 arrays, mostly near background
# Construct (chain): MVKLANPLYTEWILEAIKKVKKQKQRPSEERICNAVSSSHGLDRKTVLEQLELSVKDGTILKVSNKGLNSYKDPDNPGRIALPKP
Sequence,E-score
ATGGCCGC,0.35
CATAATAG,0.0609
CTGCGCCA,0.0658
GAGACTTA,-0.177
ACAACAAG,-0.103
AATATTCG,-0.113
TAAAACTA,-0.0735
CGTGAAGA,0.0974
ATAGCCAA,-0.142
ACGATTGC,-0.0212
ATAGTCTA,-0.0514
ACTGGCTC,-0.165
AGAAAACG,0.0752
GCGACAAA,0.0294
TACATATA,-0.154
AGATTGCA,-0.0896
AGAACCCG,0.159
CTATAGGC,0.102
ACCAAAAC,-0.0344
AGTTGCCA,-0.15
AGATGATC,-0.179
AGTCACCA,-0.133
GGATCCCC,0.161
CCCCCATC,-0.181
AAGGACGG,0.316

# Block 3 — method: competition protein-binding microarray; form: double-stranded DNA, one strand shown; matrix: in vitro; concentration: 2 µM; together with: Cbf1 competitor, 0.05 µM; reading: higher = stronger binding; constant ends, left off below: … GTCTTGATTCGCTTGACGCTGCTG
# Target: Phosphate system positive regulatory protein PHO4, full length, GST-tagged (PHO4, Saccharomyces cerevisiae, UniProt P07270, residues 1-312)
# Notes: whole 60-bp probe, lowest competitor level
# Residues (chain): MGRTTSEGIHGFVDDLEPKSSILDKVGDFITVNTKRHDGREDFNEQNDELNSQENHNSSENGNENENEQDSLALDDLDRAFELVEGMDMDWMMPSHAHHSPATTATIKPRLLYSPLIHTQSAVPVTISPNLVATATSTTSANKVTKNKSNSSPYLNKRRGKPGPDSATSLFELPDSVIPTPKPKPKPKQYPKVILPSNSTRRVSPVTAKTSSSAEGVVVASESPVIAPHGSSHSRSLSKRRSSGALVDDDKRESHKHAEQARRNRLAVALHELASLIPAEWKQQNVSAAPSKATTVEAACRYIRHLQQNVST
Sequence,fluorescence intensity [a.u.]
CGTTGCCTTATCGTCCTCGTGTCCTGTCTTCGAGGT,12200
CGCGCGCGGCCGGGCCATGTGAAGATTTTAACGGGC,4620
ATCTAGCTCTGCACACATGTGACGGAACGAAGCATC,11300
CTGTTCCTAAGTTATTTCGTGGGACAAGCGGACATG,6320
TGCTAAGACCATAGGCACATGTACGCAGGCGACCAG,9460
CTAACGAAGGTTTGTCACTGCACTTACAAGCCAAGT,3290
CTTCTGTAAATTTTTCACGTGTCTTGACGCGCCCCG,12700
TGAGTCTTTGGGTCCCACGTGCTTTCTAAAACTTCA,17100
ATATGATAAAATATAGATATATACCCTTAGATATCG,3490
AGAATAGTTACGGATCAGGTGATGAGACGATAAAAA,3780
CTTCTGTAAATTTGAAGCGTGGGTGGACGCGCCCCG,7360
CGGGGTTAAGTTTTTCACGTGAGGTGCTTGCAGCAG,8950
CTAACGAAGGTTTGACCGGTGGGTGACAAGCCAAGT,3410
GCACCAGGAAGTTGTCATGCTTGATGCTCGGCTCCC,4480
CGTCCTAGTGATTGCGATGTGGGTGCCATGAGGAAG,7520
CTTTCCCGATCTTGAAGTGTGGGTGTAGCACATTTG,5790
AAATTACTAAGTTGCTCTGTGGGTGACGCCGTATGA,3540
CCAGACCGTTTAGGCCATGTGCGGATTGTACTTGTT,10500
ATTTCTTTAGCCGGCCACGTGGCAACTGAAATGTCT,19800
TTTATCATTCGTTAACTTTCAACTATCTGATTTTGA,3100
TGACATTGCCACCATCACGTTGTCAAACTTTGCCGG,11000
CTAACGAAGGTTTGTCACTGTACTTACAAGCCAAGT,2990
CAGTTAATTTTGGATCTCGTGACGGGTAATCTTCTT,7040

# Block 4 — method: RNA Bind-n-Seq; form: RNA; matrix: in vitro; concentration: 365 nM; baseline: no-protein control; reading: higher = stronger binding
# Target: RNA binding protein fox-1 homolog 2, RRM domain, GST-SBP tag (RBFOX2, Homo sapiens, UniProt O43251-10, residues 100-194)
# Notes: natural RNA segment, single round, ends assumed
# Constant ends, left off below: GGGAGUUCUACAGUCCGACGAUC … UGGAAUUCUCGGGUGCCAA
# Construct (chain): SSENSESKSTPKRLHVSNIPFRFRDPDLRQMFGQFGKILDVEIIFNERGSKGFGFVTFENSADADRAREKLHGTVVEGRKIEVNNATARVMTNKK
Sequence,RBNS enrichment (R)
UGUUGGGUCACCGGCUGGACCUGCUGCAGCCUGCAGAGCCACAGUCAGCCUGCCCACAUGCCACCGAGCAAACGCAUCUUGCUUUUCACAUCUCUCCUCCUACAGCCUUA,0.57
CUGUCUGCAGUAGGACACUGAAAACAGCAAGAACUUCGGGGUGAACACCCGCUGAUCCUUUAACAAGGAUUUCUGGCAGGAAACUCACAAAAAGGAGAACUGAAAAUUUA,0.257
CUGCCAGUGCCUUACCACCUACCCAGGAAAGCAGGUCCUUGAGCCACCCAGGCCUUACAAUUUGAUCACCAAGAGUAUCCCAGAAGUUAUCUCAGCUUCUCCAUCACCCC,0.42
GCUUAUUAACGUGAGCCUCCCUGUUGGUGAAAUGGUGUAGCUGGGAACGGACAGCAAAGGUGCAGGCGGUCAGGCUCCUCGCUUGGAAGACCACGGUUCUGAGCAAGUCU,0.374
AGCUCUUUGGCAAUUCUCCUUCCCUCACUCCUCAGGGUGGGGGCUAGAGUAAGCCUGACAUCCUCCUCCAUUCUCAAGACUCUCUCUCUUUCAUUUGGUACCCUGUACCC,0.385
AUGCAUGUGUCUGUCUGAUCAGCAUCACUGCACACGGAGGUCUAGUGAGCCUCUUGCUAAGUGUCACACACACUCUUCCCAAAGACGUGAUGAGUUAAAGUUGUAUUCUG,1.24
UUAACCCUGACUUUGGGAUCUGCCUGCAUCGGCGUUGGCCACUGUCCCCAUUUACAUUUUCCCCACUCUGUCUGCCUGCAUCUCCUCUGUUCCGGGUAGGCCUUGAUAUC,7.57
UAUGUGACAGUAGGAAGGAAUGGUUUCCCCUAACAAGCCCAAUGCACUGGUCUGACUUUAUAAAUUAUUUAAUAAAAUGAACUAUUAUCAAAUAAAACGUAUGAAUCAGU,0.731
GCUCAGUUACACAGCUUGUCUGUGACUGGGAAGCCCAUUUUGUGUCAUUUCUGCACACCUGUCCGCUGUUGACACCUUAUUAGAGGCACUGCAUUUUGGUUUCACAAUUC,0.833
CCACUGAUUGAAAUUUUCUUCUUCCAUGGACUAAGUCCAUCUAGGAAGGAAAAAUGAGGAGAAAGAGUGUGGUAUCCUCCUUCUAAGACAGUGACCGAUUUCUCUGGGUU,0.487
ACUCUCUUAUUUGUGCAUUCGGUUUGGUUUCUGUAGUUUUAAUUUUUAAUAAAGUUGAAUAAAAUAUAAACGCUGGUAUCUGUUGGCUUCCAUUCCGCUUUAGUAAGUAA,1.36
GAGAGAGAAUGAGUCCUCCCUCAGUUGCUGCCUCUCACUCCUGGUGACAUGGUGCCACCCAAGCUUGGCCAUUCCCACAUAGUCAGCAAGCUGAGGACCCAAAGUUGGAC,0.368
